Experimental data of several laboratories.
Lines come from different studies, so protocols differ. Values joined by “and” are separate records of one study, mostly repeats; a detail may differ. ± gives the spread as reported.

SMILES	tested on	assay	test system	setting	scale	quantity	value
CCOC(=O)C1(Cc2cccc(C(C)C)c2)Oc2cc(F)ccc2N(Cc2cccc(C(C)C)c2)C1=O (stereo not shown)	Arabidopsis thaliana	root length, petri dish germination	Col-0, 1/2 MS medium	50 µg/mL, 7 days, 22 °C, dark		inhibition	32.5%
Cc1cc(C(=O)Nc2nc3cccc(C)c3n2[C@H]2CCCCN(C(=O)/C=C/CN(C)C)C2)ccn1	Trypanosoma brucei	cell growth, Alamar Blue	2T1 overexpressing Tb927.7.5770		reference: parental 2T1	EC50 fold shift	0.27 fold and 0.77 fold
O=C1NC2(CC2)COc2ncc(F)cc2[C@H]2COCCN2c2ccn3ncc1c3n2			Sprague-Dawley rat, female, spleen	oral, 10 mg/kg/day, 4 weeks, end of treatment		organ-to-body weight ratio	0.343 ± 0.076%
CCOC(=O)C1(C)Oc2cc(F)ccc2N(C)C1=O (stereo not shown)	Arabidopsis thaliana	stem length, petri dish germination	Col-0, 1/2 MS medium	200 µg/mL, 7 days, 22 °C, dark		inhibition	100%
O=S(=O)(c1cccc(-c2ccc3ncnc(Nc4ccc(OCc5cccc(F)c5)c(Cl)c4)c3c2)c1)N1CCCC1	Plasmodium falciparum	parasite growth, SYBR Green fluorescence	W2, drug-resistant			EC50	480 nM
CC[C@H](C)CCCCC(=O)N[C@@H](CCN)C(=O)N[C@H](C(=O)N[C@@H](CCN)C(=O)N[C@H]1CCNC(=O)[C@H]([C@@H](C)O)NC(=O)[C@H](CCN)NC(=O)[C@H](CCN)NC(=O)[C@H](CC(C)C)NC(=O)[C@@H](CC(C)C)NC(=O)[C@H](CCN)NC1=O)[C@@H](C)O	Escherichia coli	daily serial passaging	ATCC 8739	highest sub-MIC, 10 days	reference: initial MIC	MIC fold change	1.95
CN1CCN(S(=O)(=O)c2ccc(-c3ccc4ncnc(Nc5ccc(Cl)cc5)c4c3)cc2)CC1	Plasmodium falciparum	parasite growth, SYBR Green	D6	blood stage		EC50	110 nM
CCOC(=O)C1(Cc2ccc(C(F)(F)F)cc2)Oc2cc(F)ccc2N(Cc2ccc(C(F)(F)F)cc2)C1=O (stereo not shown)	Arabidopsis thaliana	stem length, petri dish germination	Col-0, 1/2 MS medium	200 µg/mL, 7 days, 22 °C, dark		inhibition	46.8%
O=S(=O)(c1ccc(-c2ccc3ncnc(Nc4ccc(OCc5cccc(F)c5)c(Cl)c4)c3c2)cc1)N1CCSCC1	Plasmodium falciparum	parasite growth, SYBR Green fluorescence	C235 (TM91C235), drug-resistant			EC50	760 nM
CN(CCO)CCO.O=C(O)C(Cl)Cl	Xanthium sibiricum			15 mg/mL, 21 days, post-emergence, greenhouse		herbicidal inhibition	-48%

Repeated from above:
SMILES	tested on	assay	test system	setting	scale	quantity	value
CCOC(=O)C1(Cc2ccc(C(F)(F)F)cc2)Oc2cc(F)ccc2N(Cc2ccc(C(F)(F)F)cc2)C1=O (stereo not shown)	Arabidopsis thaliana	stem length, petri dish germination	Col-0, 1/2 MS medium	200 µg/mL, 7 days, 22 °C, dark		inhibition	46.8%
